Assay results of several laboratories.
Compare with care: the assays were run in different laboratories. ± gives the spread as reported.

The CC50 of Cc1cc(SCc2sc(-c3c(C)noc3C)nc2C)ccc1OCC(=O)O is reported as greater than 100 µM (HEK293T; 18 h).
The CC50 of O=C(CCN(CCC(=O)N[C@@H](Cc1c[nH]c2ccccc12)C(=O)O)C(=O)CCN(CCC(=O)N(CCC(=O)N[C@@H](Cc1c[nH]c2ccccc12)C(=O)O)CCC(=O)N[C@@H](Cc1c[nH]c2ccccc12)C(=O)O)C(=O)CCOCC(COCCC(=O)N(CCC(=O)N(CCC(=O)N[C@@H](Cc1c[nH]c2ccccc12)C(=O)O)CCC(=O)N[C@@H](Cc1c[nH]c2ccccc12)C(=O)O)CCC(=O)N(CCC(=O)N[C@@H](Cc1c[nH]c2ccccc12)C(=O)O)CCC(=O)N[C@@H](Cc1c[nH]c2ccccc12)C(=O)O)(COCCC(=O)N(CCC(=O)N(CCC(=O)N[C@@H](Cc1c[nH]c2ccccc12)C(=O)O)CCC(=O)N[C@@H](Cc1c[nH]c2ccccc12)C(=O)O)CCC(=O)N(CCC(=O)N[C@@H](Cc1c[nH]c2ccccc12)C(=O)O)CCC(=O)N[C@@H](Cc1c[nH]c2ccccc12)C(=O)O)COCCC(=O)N(CCC(=O)N(CCC(=O)N[C@@H](Cc1c[nH]c2ccccc12)C(=O)O)CCC(=O)N[C@@H](Cc1c[nH]c2ccccc12)C(=O)O)CCC(=O)N(CCC(=O)N[C@@H](Cc1c[nH]c2ccccc12)C(=O)O)CCC(=O)N[C@@H](Cc1c[nH]c2ccccc12)C(=O)O)N[C@@H](Cc1c[nH]c2ccccc12)C(=O)O is reported as greater than 100 µM (HEL or HeLa; cell viability).
With O=C(/C=C/c1ccc(O)c(OC(F)(F)F)c1)C(CCCOC1CCCCO1)C(=O)/C=C/c1ccc(O)c(OC(F)(F)F)c1 (stereo not shown) the viability was 97.6 ± 1.6% (SH-SY5Y; MTT; 0.9 µM, 24 h).
COc1cc([C@@H]2c3cc4c(cc3[C@H](CC(C)C)[C@H]3COC(=O)[C@H]23)OCO4)cc(OC)c1OC has a CC50 of greater than 100 µM (HepG2; Alamar Blue; 48 h).
O=C(/C=C/c1ccc(O)c(OC(F)(F)F)c1)C1=C(/C=C/c2ccc(O)c(OC(F)(F)F)c2)OCCC1 has a viability of 95.9 ± 3.1% (SH-SY5Y; MTT; 0.9 µM, 24 h).
Cc1cc(SCc2sc(-c3ccc(C(=O)NCCN(C)C)cc3)nc2C)ccc1OCC(=O)O: CC50 “not toxic” (HEK293T; 18 h).
COc1cc([C@@H]2c3cc4c(cc3C=C(C=O)[C@H]2C(=O)OCc2ccc(CBr)cc2)OCO4)cc(OC)c1OC has a CC50 of 18.5 ± 0.7 µM (HepG2; Alamar Blue; 48 h).
The viability of COCOc1ccc(/C=C/C(=O)C(CCC(=O)OC)C(=O)/C=C/c2ccc(OCOC)c(OC(F)(F)F)c2)cc1OC(F)(F)F is reported as 96.7 ± 1.7% (SH-SY5Y; MTT; 0.9 µM, 24 h).
CCOc1ccccc1Nc1nnc(SCC(=O)Nc2cc(F)ccc2F)s1 has an IC50 of greater than 100 µM (HS27; cytotoxicity).
Cc1cc(SCc2sc(-c3ccccc3F)nc2C)ccc1OCC(=O)O gave a CC50 of greater than 80 µM (HEK293T; 18 h).
COc1cc([C@@H]2c3cc4c(cc3[C@H](C=C(C)C)[C@H]3COC(=O)[C@H]23)OCO4)cc(OC)c1OC has a CC50 of 33.1 ± 2.1 µM (HepG2; Alamar Blue; 48 h).
The viability of Cc1n[nH]c(C)c1CCOC(=O)c1cccc2c1oc(=O)n2C is reported as greater than 90% (Jurkat; MTS; up to 100 µM).
For CN(C(=O)CSc1nnc(Nc2ccccc2F)s1)c1ccccc1, “concentration reducing viability” read no less than 30 µM (Jurkat; MTS).
The recovery B-A of CCOc1ccc(S(=O)(=O)NC(=O)Cc2ccc(I)cc2)cc1Br is reported as 97.5% (MDCKII-MDR1; time not given).
CC(C(=O)/C=C/c1ccc(O)c(OC(F)(F)F)c1)C(=O)/C=C/c1ccc(O)c(OC(F)(F)F)c1 gave a viability of 97.1 ± 6.7% (SH-SY5Y; MTT; 0.9 µM, 24 h).
COC(=O)[C@@H]1C(C=Nc2cncnc2NC(C)=O)=Cc2cc3c(cc2[C@H]1c1cc(OC)c(OC)c(OC)c1)OCO3 gave a CC50 of 1.5 ± 0.1 µM (HepG2; Alamar Blue; 48 h).
The EC50 of CC(C)(C)Nc1c(-c2ccc3c(c2)CN(C2CCC(=O)NC2=O)C3=O)nc2ccccn12 (stereo not shown) is reported as 0.012 µM (MOLT-4; cell viability, CellTiter-Glo; 72 h).
With Cc1ccc(-c2nc(C)c(CSc3ccc(OCC(=O)O)c(C)c3)s2)cc1 the CC50 was greater than 80 µM (HEK293T; 18 h).
With C[N+](C)=c1ccc2c(-c3ccccc3)c3cc4c5c(c3[se]c-2c1)CCCN5CCC4 the efflux ratio was 17 (MDCKII-MDR1; relative to: without inhibitor over with inhibitor).
For COc1cc([C@@H]2c3cc4c(cc3[C@@H](CC(C)(C)O)[C@H]3COC(=O)[C@H]23)OCO4)cc(OC)c1OC, the CC50 was 57.1 ± 2.5 µM (mouse splenocytes uninfected; Alamar Blue; 48 h).
COC(=O)CC(C(=O)/C=C/c1ccc(O)c(OC(F)(F)F)c1)C(=O)/C=C/c1ccc(O)c(OC(F)(F)F)c1 has a viability of 92.9 ± 1.7% (SH-SY5Y; MTT; 0.9 µM, 24 h).
NC(=O)c1ccc(-n2cccc2Cc2ccccc2F)cc1N[C@H]1CC[C@H](O)CC1 has a viability of greater than 95% (MDA-MB-231; 25 µM, 72 h).
With COC(=O)[C@@H]1C(C=Nc2cc(C)ccc2O)=Cc2cc3c(cc2[C@H]1c1cc(OC)c(OC)c(OC)c1)OCO3 the CC50 was greater than 100 µM (HepG2; Alamar Blue; 48 h).
The efflux ratio of COc1cccc(-c2cc(-n3nncc3-c3ccc(C(F)(F)F)cc3)ccc2OC)c1 is reported as 0.104 ± 0.02 (Caco-2).
Cc1ccccc1OCCCSCc1nc2ccccc2[nH]1 has an IC50 of 27.3 µM (HCT-116 tumour organoids; cytotoxicity, 3D culture; 72 h).
With Cc1cc(SCc2sc(-c3cc4ccccc4[nH]3)nc2C)ccc1OCC(=O)O the CC50 was greater than 50 µM (HEK293T; 18 h).
COc1cc([C@@H]2c3cc4c(cc3[C@@H](OC3CCCCC3)[C@H]3COC(=O)[C@H]23)OCO4)cc(OC)c1OC gave a CC50 of 11.4 ± 2 µM (mouse splenocytes uninfected; Alamar Blue; 48 h).
For Cc1cc(SCc2sc(-c3cccnc3)nc2C)ccc1OCC(=O)O, the CC50 was greater than 100 µM (HEK293T; 18 h).
For COC(=O)CCCC(C(=O)/C=C/c1ccc(O)c(OC(F)(F)F)c1)C(=O)/C=C/c1ccc(O)c(OC(F)(F)F)c1, the viability was 98.2 ± 2% (SH-SY5Y; MTT; 0.9 µM, 24 h).
Cc1cc(SCc2sc(-c3ccc(C(F)(F)F)cc3Cl)nc2C)ccc1OCC(=O)O has a CC50 of greater than 50 µM (HEK293T; 18 h).
The viability of CN(C)C(=O)CCC(C(=O)/C=C/c1ccc(O)c(OC(F)(F)F)c1)C(=O)/C=C/c1ccc(O)c(OC(F)(F)F)c1 is reported as 98.6 ± 3.1% (SH-SY5Y; MTT; 0.9 µM, 24 h).
For Cc1cc(SCc2sc(-c3ccc(C(F)(F)F)c(Cl)c3)nc2C)ccc1OCC(=O)O, the CC50 was greater than 33 µM (HEK293T; 18 h).
For CC(C)OC(=O)CCC(C(=O)/C=C/c1ccc(O)c(OC(F)(F)F)c1)C(=O)/C=C/c1ccc(O)c(OC(F)(F)F)c1, the viability was 90.9 ± 0.8% (SH-SY5Y; MTT; 0.9 µM, 24 h).
COC(=O)[C@@H]1C(c2nc3ccccc3s2)=Cc2cc3c(cc2[C@H]1c1cc(OC)c(OC)c(OC)c1)OCO3 gave a CC50 of 15.6 ± 0.6 µM (mouse splenocytes uninfected; Alamar Blue; 48 h).

Excerpt of the above:
For COC(=O)CCCC(C(=O)/C=C/c1ccc(O)c(OC(F)(F)F)c1)C(=O)/C=C/c1ccc(O)c(OC(F)(F)F)c1, the viability was 98.2 ± 2% (SH-SY5Y; MTT; 0.9 µM, 24 h).
Cc1cc(SCc2sc(-c3ccccc3F)nc2C)ccc1OCC(=O)O gave a CC50 of greater than 80 µM (HEK293T; 18 h).
The CC50 of Cc1cc(SCc2sc(-c3c(C)noc3C)nc2C)ccc1OCC(=O)O is reported as greater than 100 µM (HEK293T; 18 h).
